Measured values from different studies.
Lines come from different studies, so protocols differ. Several values in a cell are separate wells, animals, samples, runs or records.
Target: Mitogen-activated protein kinase 10 (MAPK10, Homo sapiens, UniProt P53779)
UniProt P53779, sequence (whole entry, looked up): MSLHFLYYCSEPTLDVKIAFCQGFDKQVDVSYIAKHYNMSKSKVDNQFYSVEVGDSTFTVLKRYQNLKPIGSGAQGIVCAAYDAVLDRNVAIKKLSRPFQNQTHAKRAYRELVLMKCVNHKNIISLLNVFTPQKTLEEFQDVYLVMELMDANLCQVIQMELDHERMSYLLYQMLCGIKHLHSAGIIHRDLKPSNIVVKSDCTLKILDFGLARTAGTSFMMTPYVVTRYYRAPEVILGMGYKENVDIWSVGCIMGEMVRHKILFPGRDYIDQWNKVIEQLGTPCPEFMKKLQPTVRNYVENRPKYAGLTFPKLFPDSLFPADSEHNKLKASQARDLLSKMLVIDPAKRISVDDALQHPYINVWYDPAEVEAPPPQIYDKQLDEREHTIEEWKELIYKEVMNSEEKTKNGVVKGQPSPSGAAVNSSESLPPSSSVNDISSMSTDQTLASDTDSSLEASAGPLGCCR

Cc1cccc(O[C@H]2CCC[C@@H](C(C)CNCc3ccncc3)C2)c1 (relative stereo)
inhibition (kinase activity, kinome panel screening; 10 µM): -7%

C=CC(=O)Nc1cccc(-c2cnc3[nH]cc(C(=O)NC(C)(C)C)c3n2)c1
inhibition (kinase activity; 0.1 µM): 0%

C=CC(=O)N1CCCC(n2c(=O)c3ncccc3n(Cc3ccc(Oc4ccccc4)cc3)c2=O)C1 (centres unmarked)
remaining binding (cell-free assay, competition with immobilised ligand; 1 µM): 71%

Cc1cnc2nc1Nc1cccc(c1)COC/C=C/COCc1cc(ccc1OCCN1CCOCC1)N2
binding (concentration not given, kinase construct JNK3; relative to: control): 58%

Nc1ncc2c(n1)-c1c([nH]c3ccc(C4=CCOCC4)cc13)CCC2
remaining binding (binding, competition with immobilised ligand; 1 µM): 79%

C[C@H]1CN(C(=O)c2cn(-c3ccnc(N)n3)c3cc(C#CC4(O)CCCCC4)ccc23)CCN1
inhibition (enzyme activity, inhibitor, FRET; 1 µM): -4%

CC1CCN(c2ccc(-c3n[nH]c(=O)c4ncccc34)cc2)CC1
remaining binding (cell-free assay, competition with immobilised ligand; 10 µM): 34%

C=CC(=O)N1CCc2ccc(-n3c(=O)ccc4cnc5ccc(-c6cnn(C)c6)cc5c43)cc21
remaining binding (KINOMEscan; 1 µM; relative to: DMSO control): 75%

O=C=[N][Ru-4]123([n]4c5ccc(O)cc5c5c6c(c7cc(F)c[n+]1c7c54)C(=O)NC6=O)[S+]1CC[S+]2CC[S+]3CC1 (centres unmarked)
remaining activity (enzyme activity; 100 nM, human enzyme, with: 10 µM ATP; relative to: untreated): 86%

COCC12C(=O)NC3C4(C(OC)CC1O)C1CC5(O)C(OC)C(O)C(OC(C)=O)(C1C5OC(=O)c1ccccc1)C3(O)C(OC)C24 (centres unmarked)
remaining activity (kinase activity, inhibitor, ProQinase kinase profiling; 25 µM; relative to: control): 95% and 102%

CNC(=O)C[C@H](Cc1ccc(C#N)cc1)NC(=O)c1cc(-c2ccc(CN[C@H](C)c3ccc(C)cc3)o2)ccc1Cl
activity vs control (enzyme activity, inhibitor; 1 µM): 105%

NC(=O)C[C@H]1CCc2sc3ncnc(O[C@H]4CC[C@H](N5CCOCC5)CC4)c3c21
inhibition (enzyme activity, inhibitor; 10 µM): -5%

C=C1CCCCCCCCCC(CO)C1=O (centres unmarked)
remaining binding (cell-free assay, competition with immobilised ligand; 10 µM): 100%

CN1CCN(Cc2ccc(NC(=O)c3cccc(C#Cc4cnc(N)c5ncccc45)c3)cc2C(F)(F)F)CC1
remaining binding (cell-free assay, competition with immobilised ligand; 0.5 µM): 64%

CNC(=O)C1CCN(c2cc(C)c(F)cc2NC(=O)c2ccc(-c3cc(O)ccc3C)c(C)c2)CC1
remaining binding (binding, competition with immobilised ligand; 1 µM): 81%

COC(=O)[C@@]1(C)C=C(C(=O)Nc2cccc(C(=O)Nc3ccc(Nc4nccc(-c5cccnc5)n4)c(C)c3)c2)C(=O)CC1
remaining activity (enzyme activity, inhibitor, radiometric; 1 µM): 1%

COc1cc(Nc2nccc(-c3cnn4nc(OC)ccc34)n2)cc(C(F)(F)F)c1
remaining binding (binding, competition with immobilised ligand; 1 µM): 94%

CC(=O)Nc1ccc(-c2ccnc(NCC3CCC3)n2)cc1
remaining binding (cell-free assay, competition with immobilised ligand; 10 µM): 2.3%

CC(=O)N1c2ccc(-c3ccc(CNC(=O)c4cn5cc(-c6cnc(N)nc6)nc(N6CCOCC6)c5n4)cc3)cc2CC[C@@H]1C
remaining binding (KINOMEscan; 10 µM): 57%

COc1ccc(NC(=O)Nc2ccc3c(c2)C(=O)N(C(C)CO)CC(C)C(CN(C)Cc2ccc4c(c2)OCO4)O3)cc1 (centres unmarked)
remaining activity (kinase activity, KinaseProfiler; 0.03 µM, species human; relative to: control): 90%

Repeated from above:
Cc1cccc(O[C@H]2CCC[C@@H](C(C)CNCc3ccncc3)C2)c1 (relative stereo)
inhibition (kinase activity, kinome panel screening; 10 µM): -7%

COC(=O)[C@@]1(C)C=C(C(=O)Nc2cccc(C(=O)Nc3ccc(Nc4nccc(-c5cccnc5)n4)c(C)c3)c2)C(=O)CC1
remaining activity (enzyme activity, inhibitor, radiometric; 1 µM): 1%

CN1CCN(Cc2ccc(NC(=O)c3cccc(C#Cc4cnc(N)c5ncccc45)c3)cc2C(F)(F)F)CC1
remaining binding (cell-free assay, competition with immobilised ligand; 0.5 µM): 64%
